Measurements collected from several papers.
Each line is one published result; not all experiments were run side by side. ± gives the spread as reported.

SMILES	test	test system	setting	how to read	endpoint	result
CC(C)C[C@@H](NC(=O)[C@@H](Cc1ccccc1)NC(=O)[C@H](N)Cc1ccccc1)C(=O)N[C@H](CCCCN)C(=O)N1CCC(N)(C(=O)O)CC1	–	human, plasma	intravenous, 15 µg/kg	–	AUC(0-t)	0.246 µg·h/mL
COC(=O)C[C@](O)(CCCC(C)(C)OC(C)=O)C(=O)O[C@@H]1C(OC)=C[C@]23CCCN2CCc2cc4c(cc2[C@H]13)OCO4	–	CD1 mouse, esophagus	subcutaneous, 1 mg/kg, 2 h	–	concentration	28.4 ng/mL
CCNc1cc2[o+]c3cc(NCC)c(C)cc3c(-c3ccccc3C(=O)OCCOCC[18F])c2cc1C	–	rat	15 min	baseline: heart over lung	tissue uptake ratio	1.2
CCCCCCCCCCCCCCCC(=O)N[C@@H](CCC(=O)NCCCC[C@H](NC(=O)[C@H](CC(=O)O)NC(=O)[C@H](CO)NC(=O)[C@@H](NC(=O)[C@H](Cc1ccccc1)NC(=O)[C@@H](NC(=O)CNC(=O)[C@H](CCC(N)=O)NC(=O)[C@H](C)NC(=O)[C@@H](Cc1ccc(O)cc1)NC(C)=O)[C@@H](C)O)[C@@H](C)O)C(=O)N[C@@H](CO)C(=O)N[C@@H](CCCCN)C(=O)N[C@@H](Cc1ccc(O)cc1)C(=O)N[C@@H](CC(C)C)C(=O)N[C@@H](CC(=O)O)C(=O)N[C@@H](CCC(=O)O)C(=O)N[C@@H](CCCNC(=N)N)C(=O)N[C@@H](C)C(=O)N[C@@H](C)C(=O)N[C@@H](CCC(N)=O)C(=O)N[C@@H](CC(=O)O)C(=O)N[C@@H](Cc1ccccc1)C(=O)N[C@H](C(=O)N[C@@H](CCC(N)=O)C(=O)N[C@@H](Cc1c[nH]c2ccccc12)C(=O)N[C@@H](CC(C)C)C(=O)N[C@@H](CC(C)C)C(=O)N[C@@H](CCC(=O)O)C(=O)NCC(=O)NCC(=O)N1CCC[C@H]1C(=O)N[C@@H](CO)C(=O)N[C@@H](CO)C(=O)NCC(=O)N[C@@H](C)C(=O)N1CCC[C@H]1C(=O)N1CCC[C@H]1C(=O)N1CCC[C@H]1C(=O)N[C@@H](CO)C(N)=O)C(C)C)C(=O)O	Holter monitoring	human	subcutaneous, 50 µg single dose, first 48 h	baseline: baseline	heart rate increase	19 bpm
CC(C)(CCCC/C=C/CCCCCC(C)(C)C(=O)O)C(=O)O	–	beagle dog, plasma	oral, 5 mg/kg	–	half-life	27.4 h
CCOC(=O)[C@@H]1Cc2c(cc([N+](=O)[O-])cc2[N+](=O)[O-])[C@H](O)[C@]12C(=O)Nc1ccc(Br)cc12	–	BALB/c nude mice, xenograft	ip, 30 mg/kg/day, four daily doses, 1 h	–	plasma concentration	< 100 nM
CC(C)[C@H](NC(=O)CNC(=O)[C@H](CCC(N)=O)NC(=O)[C@H](C)N)C(=O)O	–	human	30 mg/kg single dose	–	discontinuation due to adverse events	0%
CC1N=C(c2ccccc2F)c2cc(Br)ccc2-n2cnc(C(=O)OC3OC(CO)C(O)C(O)C3O)c21 (stereo not shown)	–	Swiss Webster mouse	intraperitoneal, 750 µg of parent drug, 0 to 48 h	baseline: dose	excretion in urine and feces	16.3 ± 7.3%
CC[C@@H]1C[C@]1(NC(=O)[C@@H]1C[C@@]2(CN1C(=O)[C@@H](NC(=O)[C@@H](NC(=O)[C@@H]1CCCCN1C(C)C)C1CCCCC1)C(C)(C)C)C(C)(C)C21CCC1)C(=O)NS(=O)(=O)N1CCCC1	–	healthy human	oral, 10 mg single dose	–	subjects with nausea	0%
CC(C)C[C@@H](N)C(=O)NCC(=O)N[C@H](C)C(=O)N[C@H](CO)C(=O)N[C@H](Cc1c[nH]c2ccccc12)C(=O)N[C@H](Cc1c[nH]cn1)C(=O)N[C@H](CCCNC(=N)N)C(=O)N1CCC[C@@H]1C(=O)N[C@H](CC(=O)O)C(=O)N[C@H](CCCCN)C(=O)N[C@H](CS)C(=O)N[C@H](CS)C(=O)N[C@H](CC(C)C)C(=O)NCC(=O)N[C@H](Cc1ccc(O)cc1)C(=O)N[C@H](CCC(N)=O)C(=O)N[C@H](CCCCN)C(=O)N[C@H](CCCNC(=N)N)C(=O)N1CCC[C@@H]1C(=O)N[C@H](CC(C)C)C(=O)N1CCC[C@@H]1C(N)=O	LC-MS/MS	rat plasma	25 ng/mL, 30 days, -80 °C, storage	baseline: nominal	accuracy	99.1%
C/C=C/C=C/C/C=C/CCCCCCCc1cccc(O)c1O	–	female Kunming mice tumour-bearing, lungs	intravenous, 10 mg/kg, 4 h	–	tissue concentration	7690 ± 1050 ng/g
CC1=CC(C)(C)N=C2C=CC(=O)C=C12	–	female Wistar Han rats, stomach	oral, 2 days	–	dose with stomach alterations	≥ 175 mg/kg/day
N=C(N)NCc1ccc(C(=O)NCCCC[C@H](NC(=O)N[C@@H](CCC(=O)O)C(=O)O)C(=O)O)cc1[131I]	–	SCID mouse, PC-3 xenografts, lungs	2 h	–	tissue uptake	1.06 ± 0.15 %ID/g
CCCCCCCCCCCCCCCCC(=O)N[C@@H](CCCCN)C(=O)N[C@@H](CCCCN)C(=O)N[C@@H](CCCCN)C(=O)N[C@@H](CCCCN)C(=O)N[C@@H](CCCCN)C(N)=O	–	Galleria mellonella larvae	50 mg/kg, 4 d	–	survival	80%
O=C(c1ccc(F)cc1)C1CCN(C2Cc3c(cccc3OCC[18F])CC2O)CC1 (single isomer, unassigned; (-))	–	rat, brain	30 min	–	tracer uptake	0.324 %ID/g
COc1cc(NC(=O)C(=O)c2c(C)n(Cc3ccc(Cl)cc3)c3ccc(C)cc23)ccn1	–	cynomolgus monkey, plasma	oral, 10 mg/kg	–	Cmax	517 ng/mL

SMILES	test	test system	setting	how to read	endpoint	result
CCCCCCCCCCCCC(=O)O.O=C1CCCC2C3CCCN4CCCC(CN12)C34 (stereo not shown)	electrical conductivity	water	313.15 K, critical micelle concentration	–	standard entropy of micellization	109 J/(mol·K)
CC(=O)[O-].CN1CCCN2CCN(CCCN(Cc3ccccc3)CC2)CC1.F[P-](F)(F)(F)(F)F.[Ni+2]	cyclic voltammetry, item: Ni(II)/Ni(III)	acetonitrile	irreversible anodic peak	baseline: SHE	oxidation potential	1.28 V
CC(C)C[C@H](NC(=O)[C@H](CCCCN)NC(=O)[C@H](CCC(=O)O)NC(=O)[C@H](C)NC(=O)[C@@H](NC(=O)[C@H](CCCCN)NC(=O)[C@H](CC(=O)O)NC(=O)[C@H](Cc1ccc(O)cc1)NC(=O)[C@H](Cc1ccccc1)NC(=O)[C@H](C)NC(=O)[C@H](CCCCN)NC(=O)[C@H](CC(C)C)NC(=O)[C@H](Cc1c[nH]c2ccccc12)NC(=O)[C@@H](N)CC(=O)O)C(C)C)C(=O)N[C@@H](CCCCN)C(=O)N[C@@H](CCC(=O)O)C(=O)N[C@@H](C)C(=O)N[C@@H](Cc1ccccc1)C(=O)N1CCC[C@H]1C(=O)N[C@@H](CC(=O)O)C(=O)N[C@@H](Cc1c[nH]c2ccccc12)C(=O)N[C@@H](C)C(=O)N[C@@H](CCCCN)C(=O)N[C@@H](C)C(=O)N[C@@H](C)C(=O)N[C@@H](Cc1ccc(O)cc1)C(=O)N[C@@H](CC(=O)O)C(=O)N[C@@H](CCCCN)C(=O)N[C@@H](C)C(=O)N[C@@H](C)C(=O)N[C@@H](CCC(=O)O)C(=O)N[C@@H](CCCCN)C(=O)N[C@@H](C)C(=O)N[C@@H](CCCCN)C(=O)N[C@@H](CCC(=O)O)C(=O)N[C@@H](C)C(=O)N[C@@H](C)C(=O)O	–	cynomolgus monkey female, plasma	intravenous infusion, 75 mg/kg, day 1, 30 min infusion	–	AUC(0-inf)	11400 µg·h/mL
CN(C)C(CNC(=O)Nc1cc(C(F)(F)F)ccc1N1CCOCC1)c1ccncc1 (stereo not shown)	–	mouse, serum	intraperitoneal, 240 mg/kg single dose	–	serum creatinine	0.2 mg/dL
O=c1cc(-c2ccccc2)oc2c(Br)c(O)c(O)c(O)c12	–	C57BL/6 mouse, plasma	intravenous, 10 mg/kg	–	time of rapid decline	≤ 2 h
CCN1CCCC1CNC(=O)c1cc(Br)cc(OC)c1O[11CH3] (stereo not shown)	–	rhesus monkey, arterial plasma	dose not given, 80 min	baseline: [18F]fallypride, lower than reference	plasma concentration difference	85%
CC[C@H](C)[C@H](NC(=O)[C@H](CCCNC(=N)N)NC(=O)[C@H](CCCNC(=N)N)NC(=O)[C@H](CC(C)C)NC(=O)[C@H](Cc1c[nH]c2ccccc12)NC(=O)[C@H](CCCCN)NC(=O)[C@H](CCCNC(=N)N)NC(=O)[C@H](CCCCN)NC(=O)[C@H](CCCNC(=N)N)NC(=O)[C@H](CCCNC(=N)N)NC(=O)CN)C(=O)NCC(=O)N[C@@H](CCCCN)C(=O)NCC(=O)N[C@H](C(=O)N[C@@H](CCCCN)C(=O)N[C@H](C(=O)N[C@H](C(=O)NCC(=O)NCC(=O)N[C@@H](C)C(=O)N[C@@H](C)C(=O)N[C@@H](CC(C)C)C(=O)N[C@@H](CC(=O)O)C(=O)N[C@@H](Cc1c[nH]cn1)C(=O)N[C@@H](CC(C)C)C(N)=O)[C@@H](C)CC)[C@@H](C)CC)C(C)C	–	zebrafish embryos	1 h, 4, 28, 52 hpf	–	acute toxic concentration	5 to 25 µg/mL
COc1cc2c3c[n+]4c(cc3c3cc(OC)c(OC)c(OC)c3c2cc1OC)CCC4	–	swine cells	24 (unit not given)	–	CC50	> 100 µM
Cc1ccnc(-c2cc(C)ccn2)c1.O.[C-]#[O+].[C-]#[O+].[C-]#[O+].[Re+]	RP-HPLC C18 column, item: free diimine ligand	MeCN:water 40:60, 0.1% TFA	isocratic elution	–	capacity factor	0.66
C[C@@H]1CC[C@H]2[C@@H](C)CO[C@@H]3O[C@@]4(C)CC[C@@H]1[C@]32OO4	item: compound	rat, plasma	50.0 ng/mL spiked, 30 days, long-term storage at -80 °C	–	measured concentration	48.7 ± 1.22 ng/mL
[11CH3]n1c(=O)n(CCCO)c(=O)c2c1nc(Oc1cccc(OC(F)(F)F)c1)n2Cc1ccc(Cl)cc1	ex vivo biodistribution	Sprague Dawley rat, lung	30 min post injection	–	tracer uptake	1.13 ± 0.05 %ID/g
CSCC[C@@H]1NC(=O)[C@@H]2CSSC[C@H](NC(=O)[C@H](CO)NC(=O)[C@H](C)N)C(=O)N[C@@H](CCCNC(=N)N)C(=O)N[C@@H]([C@@H](C)O)C(=O)N3CCC[C@H]3C(=O)N[C@@H](CCCCN)C(=O)N[C@@H](CC(=O)O)C(=O)N[C@H]3CSSC[C@H](NC(=O)[C@H](CCCCN)NC(=O)[C@H](CCCNC(=N)N)NC(=O)[C@H](CC(N)=O)NC1=O)C(=O)N[C@@H](CCCCN)C(=O)N[C@H]1CSSC[C@H](NC(=O)[C@@H]4CCCN4C(=O)[C@H](CC(=O)O)NC(=O)[C@H](C)NC3=O)C(=O)N[C@@H](C)C(=O)N[C@@H](CCCCN)C(=O)N[C@@H](CCC(=O)O)C(=O)N[C@@H]([C@@H](C)O)C(=O)NCC(=O)N[C@@H](CSSC[C@@H](C(N)=O)NC(=O)[C@H](CCCNC(=N)N)NC(=O)[C@H](CC(N)=O)NC1=O)C(=O)N1CCC[C@H]1C(=O)N[C@@H](Cc1ccc(O)cc1)C(=O)NCC(=O)N[C@@H](CCCCN)C(=O)N2	–	DA rat, pristane-induced arthritis, serum	subcutaneous, single 0.1 mg/kg at onset, end of 21-day trial	–	LDH	582 U/L
Cc1ccc(/C=C/C(=O)O)cc1-c1cc2c(cc1C)C(C)(C)CCC2(C)C	–	Sprague-Dawley rat, male	oral, 100 mg/kg, 6 h, sesame oil vehicle	–	blood triglycerides	357 ± 307 mg/dL
CCC[C@@H]1O[C@@H]2C[C@H]3[C@@H]4C[C@H](F)C5=CC(=O)CC[C@]5(C)[C@@]4(F)[C@@H](O)C[C@]3(C)[C@]2(C(=O)CO)O1	–	CD1 mice, plasma	subcutaneous, 0.2 mg/kg	–	half-life	0.34 h
CC[C@H](C)C(=O)N1CCC(NC(=O)Nc2ccc(OC(F)(F)F)c(F)c2)CC1	–	healthy volunteers	oral, 8 mg single dose, 14 (unit not given)	–	subjects with dyspnoea TEAE	0%

Excerpt of the above:
SMILES	test	test system	setting	how to read	endpoint	result
CC[C@@H]1C[C@]1(NC(=O)[C@@H]1C[C@@]2(CN1C(=O)[C@@H](NC(=O)[C@@H](NC(=O)[C@@H]1CCCCN1C(C)C)C1CCCCC1)C(C)(C)C)C(C)(C)C21CCC1)C(=O)NS(=O)(=O)N1CCCC1	–	healthy human	oral, 10 mg single dose	–	subjects with nausea	0%
CSCC[C@@H]1NC(=O)[C@@H]2CSSC[C@H](NC(=O)[C@H](CO)NC(=O)[C@H](C)N)C(=O)N[C@@H](CCCNC(=N)N)C(=O)N[C@@H]([C@@H](C)O)C(=O)N3CCC[C@H]3C(=O)N[C@@H](CCCCN)C(=O)N[C@@H](CC(=O)O)C(=O)N[C@H]3CSSC[C@H](NC(=O)[C@H](CCCCN)NC(=O)[C@H](CCCNC(=N)N)NC(=O)[C@H](CC(N)=O)NC1=O)C(=O)N[C@@H](CCCCN)C(=O)N[C@H]1CSSC[C@H](NC(=O)[C@@H]4CCCN4C(=O)[C@H](CC(=O)O)NC(=O)[C@H](C)NC3=O)C(=O)N[C@@H](C)C(=O)N[C@@H](CCCCN)C(=O)N[C@@H](CCC(=O)O)C(=O)N[C@@H]([C@@H](C)O)C(=O)NCC(=O)N[C@@H](CSSC[C@@H](C(N)=O)NC(=O)[C@H](CCCNC(=N)N)NC(=O)[C@H](CC(N)=O)NC1=O)C(=O)N1CCC[C@H]1C(=O)N[C@@H](Cc1ccc(O)cc1)C(=O)NCC(=O)N[C@@H](CCCCN)C(=O)N2	–	DA rat, pristane-induced arthritis, serum	subcutaneous, single 0.1 mg/kg at onset, end of 21-day trial	–	LDH	582 U/L
